Measurements collected from several papers.
Every numbered part comes from another study and shows a few of its results, in no order.

Sample 1 — technique: RNA Bind-n-Seq; molecule type: RNA; sample: in vitro; concentration: 200 nM; notes: whole 134-nt RNA, ends assumed; with: 150 mM LiCl; reference: input library; reading: higher = stronger binding; library: 7-deaza-guanosine replaces G
Target: Ras GTPase-activating protein-binding protein 1, full length (G3BP1, Homo sapiens, UniProt Q13283)
Chain of UniProt Q13283 (whole entry, looked up): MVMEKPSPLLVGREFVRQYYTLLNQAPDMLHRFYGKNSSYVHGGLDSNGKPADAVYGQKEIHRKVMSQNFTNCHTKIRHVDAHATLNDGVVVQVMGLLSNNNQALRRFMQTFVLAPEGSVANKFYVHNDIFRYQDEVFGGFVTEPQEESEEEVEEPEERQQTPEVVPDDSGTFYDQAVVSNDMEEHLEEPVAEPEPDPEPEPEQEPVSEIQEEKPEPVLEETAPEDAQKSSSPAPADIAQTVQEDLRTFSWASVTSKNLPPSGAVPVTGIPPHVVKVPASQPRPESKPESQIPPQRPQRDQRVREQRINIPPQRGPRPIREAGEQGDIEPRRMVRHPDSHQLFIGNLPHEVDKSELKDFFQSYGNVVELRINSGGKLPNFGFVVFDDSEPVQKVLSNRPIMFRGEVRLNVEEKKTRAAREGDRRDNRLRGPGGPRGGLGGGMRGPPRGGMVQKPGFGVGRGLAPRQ
Constant ends, left off below: GGGAGUUCUACAGUCCGACGAUC … UGGAAUUCUCGGGUGUCAAGG
| Oligonucleotide | log2 enrichment |
| --- | --- |
| UUUUACAACCCCAAUUUAAAGAAAGUUGUAGAGGCCCACAAGAUCGUUCUCUGCGCUGUAAGCCAUGUUUUCAUGCUGCUUUUCAAUGUG | -1.43 |
| CAAGUCCUGUGCUACACAUCGUAUGUACCGAAUCGGAAAAGGAAAAGGGAAAAGGGAAAGUAUUAUGUUACGCCGUUCGGAUCUGCACUU | -0.972 |
| CCCAUGCAGGUGGGCAUCUUUGGGAAGUGGGGCAAGGGGGGGAUAGGGAGGGGGGUAACACUUUGGGAACAGGUGGUCCCAGGUCGUUUC | 0.626 |
| CAAGUCCUGUGCUACACAUCGUAUGUACCGAAUCGGGGCCCGGCCCGGGCCCGGGAAAGUAUUAUGUUACGCCGUUCGGAUCUGCACUUC | -1.1 |
| GUCCUGUGCUACACAUCGUAUGUACCGAAUCAAAUUUUUUUAAACCCCCAAAUUUAAAAAAGUAUUAUGUUACGCCGUUCGGAUCUGCAC | -1.49 |
| UGGGAGGUGGAUUUUGUUUAUUUUUUUAGCUCAUUUCCAGGGGCGGGAAUUUUUUUUUAAUAUGUGUCAUGAAUAAAGUUGUUUUUGAAA | -0.431 |
| CCUCAAGUCCUGUGCUACACAUCGUAUGUACCGAAUCGGGUGGGAGGGUGGGAAAGUAUUAUGUUACGCCGUUCGGAUCUGCACUUCCAG | 0.0287 |
| CUCAAGUCCUGUGCUACACAUCGUAUGUACCGAAUCGGAAGGGAAGGGAAGGGGAAAGUAUUAUGUUACGCCGUUCGGAUCUGCACUUCC | 0.0468 |

Sample 2 — technique: protein binding microarray; molecule type: double-stranded DNA, one strand shown; sample: in vitro; concentration: not given; reference: not given; reading: higher = stronger binding
Target: Histone acetyltransferase KAT6A, winged helix 2, GST fusion (KAT6A, Homo sapiens, UniProt Q92794, residues 85-181)
Notes: 8-mer, flanks averaged, mean of 2 arrays, mostly near background
Target sequence (chain): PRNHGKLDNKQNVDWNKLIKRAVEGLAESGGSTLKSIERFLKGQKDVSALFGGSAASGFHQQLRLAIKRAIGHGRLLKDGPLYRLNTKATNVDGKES
| Oligonucleotide | E-score |
| --- | --- |
| AGCCGCAG | 0.193 |
| TCATGTAA | -0.17 |
| CTGGGATA | 0.106 |
| CAACTCAG | 0.106 |
| GCTAACCA | -0.129 |
| GACTCCTC | -0.0528 |
| AGTGATCG | -0.126 |
| CTTTGCTA | 0.124 |
| GTGCGTGA | 0.163 |
| TGCAATAA | 0.00818 |
| ATTGGCAG | -0.214 |
| CAAGTAGA | -0.0493 |
| CTGGCGCC | 0.229 |
| TAGTCGAA | 0.11 |
| AAAAAAAA | 0.23 |
| TATACGGA | -0.139 |
| CGCTTCCA | 0.0586 |
| CTGCCACC | 0.0227 |
| TCCAAGGA | -0.0346 |
| ATTCTATA | 0.0332 |
| CTAAGGCA | 0.0589 |
| ACAAGTTC | 0.0463 |
| CCTGAAGA | 0.0611 |
| CATAGTAC | -0.104 |

Sample 3 — technique: RNA Bind-n-Seq; molecule type: RNA; sample: in vitro; concentration: 365 nM; reference: no-protein control; reading: higher = stronger binding
Target: RNA binding protein fox-1 homolog 2, RRM domain, GST-SBP tag (RBFOX2, Homo sapiens, UniProt O43251-10, residues 100-194)
Notes: natural RNA segment, single round, ends assumed
Constant ends, left off below: GGGAGUUCUACAGUCCGACGAUC … UGGAAUUCUCGGGUGCCAA
Target sequence (chain): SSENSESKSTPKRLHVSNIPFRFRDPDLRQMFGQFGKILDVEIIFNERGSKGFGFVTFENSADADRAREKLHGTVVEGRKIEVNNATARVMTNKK
| Oligonucleotide | RBNS enrichment (R) |
| --- | --- |
| UGAGACAAGAGUGCCUAUGAGAAACCAUUGCACCUGGGAGCACUGCUUGGAGCUAUCUCUACAUUUAGUGAAUUUCUUGUAAAACACUUUGAGAUACAUUGUUUUGGAAA | 0.647 |
| UUUGGGCCCAGUGCCUUGGUGAAGGUUGAUUAGCUUGACUGUCUUUGAAAGUAUCUGAUGGAGCUCCUGAUGACCUAAUGUAUCCUUUAGAAAUUUAAAAUAGCAUUAGA | 0.565 |
| UGAAGUUAUCUCCUUGGGCACUUGUCAAAUAUGCUGCUUUUAACCGGCGAUUCUAAUGGGAUUGACUGACUGGAGACCUCACAUCAUGUUCACAUUUAACCUUAAACACC | 0.247 |
| AGGGAUUUUUGUUCUUGUUGUUCUCGUUGUUGUUUUAAGUUUACUGGGGAAAGUGCAUUUGGCCAAAUGAAAUGGUAGUCAAGCCUAUUGCAACAAAGUUAGGAAGUUUG | 1.43 |
| GUAGAUUGGGCGUCUGAGACCCAGAACAUCCUAAAUUUGCAAUGGGUAACAGCUGAAACAAACGGAAGUUUUUGUACCAAAGUGGCCGGAGGUGGGGAAGAACUACUUUC | 0.617 |
| UCUUCUUCCCUCAACUUCUUCACCCCUGAAGGACGACUGUCUGCAGAUGUUGCAGGACCUUGUUUUAAAAUCAACUCCCUUCUCUCCCAGCGGGGGGCCUCUUCCUUCCU | 0.324 |
| AGUUGGUAGACUAGCCAAACAUCUGCUUGCUCUCACUUUGUUUUGGAAGAACCAUGGUAGCUUGUCAGCUGGUAGAAAGAUGGUUUGUAAAAACCAGUUUCUCACGGAGG | 1.46 |
| GUGCUUUGCACAUAGUAGUCACUCAGUGUUUGUUAAAUAAAGCUAUUAGUGUCAUUAAAAUUCAAAAGACAGUAUAAUGUGUGUUUUUAGAUAUUUUGUGUAAAAAUUAA | 0.986 |

Sample 4 — technique: protein-binding microarray; molecule type: double-stranded DNA, one strand shown; sample: in vitro; concentration: 2200 nM top; notes: 60-bp whole probe; with: salmon DNA 0.4 mg/ml; reference: random background probes; reading: higher = stronger binding; constant ends, left off below: GCCTAGCAC … GTCTTGATTCGCTTGACGCTGCTG
Target: Interferon regulatory factor 7, full length, phosphomimetic (IRF7, Homo sapiens, UniProt Q92985, residues 1-503, S471D/S472D/S475D/S476D/S477D/S483D/S484D/S487D)
Residues (chain): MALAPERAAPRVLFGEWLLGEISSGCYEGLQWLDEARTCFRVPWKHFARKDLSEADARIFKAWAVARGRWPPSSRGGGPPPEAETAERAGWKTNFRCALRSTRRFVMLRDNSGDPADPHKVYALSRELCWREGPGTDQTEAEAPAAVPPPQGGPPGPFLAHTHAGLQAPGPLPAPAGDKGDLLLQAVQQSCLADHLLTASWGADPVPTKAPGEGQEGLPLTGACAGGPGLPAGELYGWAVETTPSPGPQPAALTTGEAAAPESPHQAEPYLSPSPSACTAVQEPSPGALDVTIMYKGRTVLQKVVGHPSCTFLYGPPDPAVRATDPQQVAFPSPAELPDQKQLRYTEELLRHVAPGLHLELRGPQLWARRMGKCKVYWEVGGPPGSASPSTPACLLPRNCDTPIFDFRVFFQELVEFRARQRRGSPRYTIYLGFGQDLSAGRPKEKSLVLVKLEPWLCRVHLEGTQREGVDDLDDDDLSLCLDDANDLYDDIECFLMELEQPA
| Oligonucleotide | fitted relative affinity |
| --- | --- |
| TTAGGTATCGGGTATCGTTTAGTGCTA | 0.639 z-score |
| TTAGGACTGCTTATCATTTAGTGCTAG | 0.111 z-score |
| TTAGATATCAGTCTCGAATAGTGCTAG | 0.0164 z-score |
| GACGGAATCGACACTGGGGACGTGCTA | -0.36 z-score |
| GATGATTTCGGGACTGGAGACGTGCTA | 1.21 z-score |
| TTAGGTTTCGTTCTCCTTTAGTGCTAG | 7.74 z-score |
| TCAACACTAGTTTTCATACTGTGCTAG | 1.27 z-score |
| GACGGTATCGGTTTCGTGACGTGCTAG | 2.75 z-score |
| GACGGTTTCGGACTGGTGACGTGCTAG | 4.16 z-score |
| TGAGAACTGAGTATCGATTAGTGCTAG | -0.314 z-score |
| GACGAACTGCGGTTTCGAGACGTGCTA | 2.11 z-score |
| GACGGTATCGACGATCGGGACGTGCTA | -0.224 z-score |
| TTCGATCTCAGTCTCGATTAGTGCTAG | 0.947 z-score |
| TCACCTTTCTGCCTCAGACTGTGCTAG | 2.23 z-score |
| TTAGGTTCCCTTTTCCGTTAGTGCTAG | 3.41 z-score |
| TCAAATTTGGAAACCGAACTGTGCTAG | -0.251 z-score |
| TCAGGACTGGACTATCGGTTAGTGCTA | -0.208 z-score |

A few entries again (sample 4):
| Oligonucleotide | fitted relative affinity |
| --- | --- |
| TTAGGTATCGGGTATCGTTTAGTGCTA | 0.639 z-score |
| TTAGGACTGCTTATCATTTAGTGCTAG | 0.111 z-score |
| TTAGATATCAGTCTCGAATAGTGCTAG | 0.0164 z-score |
| GACGGAATCGACACTGGGGACGTGCTA | -0.36 z-score |
| GATGATTTCGGGACTGGAGACGTGCTA | 1.21 z-score |
| TTAGGTTTCGTTCTCCTTTAGTGCTAG | 7.74 z-score |
| TCAACACTAGTTTTCATACTGTGCTAG | 1.27 z-score |
| GACGGTATCGGTTTCGTGACGTGCTAG | 2.75 z-score |
| GACGGTTTCGGACTGGTGACGTGCTAG | 4.16 z-score |
